Measured values pooled from the literature.
A part holds a random share of what one study measured.

Series 1
Target: Sal-like protein 4, full length isoform A (SALL4, Homo sapiens, UniProt Q9UJQ4, residues 1-1053)
Sequence of UniProt Q9UJQ4 (whole entry, looked up): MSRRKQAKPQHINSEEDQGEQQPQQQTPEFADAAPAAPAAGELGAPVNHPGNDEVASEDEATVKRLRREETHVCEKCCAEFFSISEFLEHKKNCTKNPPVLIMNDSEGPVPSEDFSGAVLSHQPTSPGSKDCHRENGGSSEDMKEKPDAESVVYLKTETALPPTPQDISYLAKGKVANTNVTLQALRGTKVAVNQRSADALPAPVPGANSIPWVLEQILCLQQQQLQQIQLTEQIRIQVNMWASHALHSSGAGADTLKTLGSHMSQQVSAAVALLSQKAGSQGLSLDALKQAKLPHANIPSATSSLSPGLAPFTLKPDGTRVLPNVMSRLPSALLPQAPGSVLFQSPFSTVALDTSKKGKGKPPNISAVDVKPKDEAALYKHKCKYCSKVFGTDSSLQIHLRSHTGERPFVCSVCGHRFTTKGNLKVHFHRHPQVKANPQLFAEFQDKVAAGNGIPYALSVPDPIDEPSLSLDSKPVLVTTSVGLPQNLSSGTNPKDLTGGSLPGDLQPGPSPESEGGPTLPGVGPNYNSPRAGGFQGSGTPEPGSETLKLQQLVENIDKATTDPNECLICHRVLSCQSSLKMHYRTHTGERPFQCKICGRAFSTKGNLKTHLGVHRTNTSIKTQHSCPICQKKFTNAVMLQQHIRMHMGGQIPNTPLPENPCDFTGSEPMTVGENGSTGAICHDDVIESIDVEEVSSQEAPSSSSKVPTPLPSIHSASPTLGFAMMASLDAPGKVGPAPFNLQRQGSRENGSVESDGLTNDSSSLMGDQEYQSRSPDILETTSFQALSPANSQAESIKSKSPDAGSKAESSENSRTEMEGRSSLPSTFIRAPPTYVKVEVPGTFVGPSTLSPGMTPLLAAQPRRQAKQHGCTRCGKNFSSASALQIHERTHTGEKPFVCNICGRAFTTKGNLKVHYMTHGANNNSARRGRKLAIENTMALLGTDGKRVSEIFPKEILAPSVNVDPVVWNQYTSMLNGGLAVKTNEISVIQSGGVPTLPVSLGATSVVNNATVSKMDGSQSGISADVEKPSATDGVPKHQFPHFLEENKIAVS
Method: universal PBM
Form: double-stranded DNA, one strand shown
Sample: in vitro
Concentration: 600 nM
Notes: 8-mer, flanks averaged, mean of replicates
Reading: higher = stronger binding
With `ATTTTCTG` the E-score was 0.174.
`CAGTCACC` gave an E-score of -0.159.
`CGTTAATA` has an E-score of 0.271.
The E-score of `AGCCTGCG` is reported as -0.28.
The E-score of `CCACGTCG` is reported as -0.309.
With `CTTTTTCC` the E-score was 0.096.
With `AGTAAGAG` the E-score was 0.0275.
`ACGAGGGC` has an E-score of -0.243.
With `AGTCGTCA` the E-score was -0.0089.
With `ATACTCCC` the E-score was 0.0258.
For `ATGACGAA`, the E-score was 0.203.
For `CTCCAGCC`, the E-score was -0.414.
`CGACGGAC` gave an E-score of -0.246.
`CCTCCAAG` gave an E-score of -0.0787.
For `CTACTGCC`, the E-score was -0.152.
For `AAACTGGG`, the E-score was -0.201.
`CGTTAACA` gave an E-score of 0.082.
`GCACGGGA` has an E-score of -0.292.
For `GGATATCC`, the E-score was 0.017.
For `AGCTTCCT`, the E-score was -0.00859.
For `AAAGTCGG`, the E-score was -0.0524.
`ACGGACAG` has an E-score of -0.202.
The E-score of `CAACTTCC` is reported as -0.155.
`CAGTACCC` has an E-score of -0.191.

Series 2
Target: Centromere-binding protein 1, full length, N-terminal tag (CBF1, Saccharomyces cerevisiae, UniProt P17106, residues 1-351)
Sequence of UniProt P17106 (whole entry, looked up): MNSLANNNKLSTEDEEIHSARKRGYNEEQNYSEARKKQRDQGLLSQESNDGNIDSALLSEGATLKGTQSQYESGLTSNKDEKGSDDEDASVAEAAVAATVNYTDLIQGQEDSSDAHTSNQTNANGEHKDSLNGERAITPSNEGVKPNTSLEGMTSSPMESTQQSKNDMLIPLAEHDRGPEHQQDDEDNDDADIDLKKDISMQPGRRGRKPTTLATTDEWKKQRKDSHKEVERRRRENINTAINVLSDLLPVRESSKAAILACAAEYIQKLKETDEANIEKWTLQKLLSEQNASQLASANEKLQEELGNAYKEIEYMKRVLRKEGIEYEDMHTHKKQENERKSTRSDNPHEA
Method: protein-binding microarray
Form: double-stranded DNA, one strand shown
Sample: in vitro
Concentration: 0.8 µM
Notes: whole 60-bp probe, no competitor
Reading: higher = stronger binding
With `GAAAGAAAAAAAAATCACCTGACATATTTTTATTAGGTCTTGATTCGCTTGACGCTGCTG` the fluorescence intensity was 5200 a.u.
With `CTAACATGACTACACCACGTTAATAGCGATCTGTTCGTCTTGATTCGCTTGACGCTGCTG` the fluorescence intensity was 573 a.u.
For `CTATTAGTTTTTCATGTGGTAAAGGCAATGCCATTCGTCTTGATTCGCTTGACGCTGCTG`, the fluorescence intensity was 547 a.u.
With `CTAACACTTCAACAACACGTGTCTGTGACCGCTTTCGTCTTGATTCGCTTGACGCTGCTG` the fluorescence intensity was 5720 a.u.
`CCTAACTACTATAGTCATGAAAAATAGCTTCGTACAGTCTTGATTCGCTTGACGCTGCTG` gave a fluorescence intensity of 514 a.u.
With `GAATAAAACACCCACTACATCAGCTCGATGATGTAGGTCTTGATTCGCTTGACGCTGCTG` the fluorescence intensity was 500 a.u.
For `CTAAAAGAGTAAGATCACCACGCACGTTTAGGGTTCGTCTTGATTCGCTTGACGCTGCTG`, the fluorescence intensity was 550 a.u.
With `GAATCTGTTTCCCGTATCGTGGTGGAAAAAGATTAGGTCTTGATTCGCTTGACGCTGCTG` the fluorescence intensity was 538 a.u.
`CTAATCCCTGCGCCCGGCGTGCTCCACATTAAGTTCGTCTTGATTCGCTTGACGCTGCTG` gave a fluorescence intensity of 524 a.u.
`CTAAGGCGTCAGTCAGGTGCAATTAATAGGTCATTCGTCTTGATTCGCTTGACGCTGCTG` has a fluorescence intensity of 1520 a.u.
With `CTAATATGTATAAGAAAGGTGACCTACCCCCTTTTCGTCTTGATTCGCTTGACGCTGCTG` the fluorescence intensity was 509 a.u.
`CTAGAGATAGTCTCAGGTGTAGTGGAAGCTGAATTCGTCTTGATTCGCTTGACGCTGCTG` gave a fluorescence intensity of 537 a.u.
For `GAATCACTGGTGATGCACGCCCAGCGTGTAGTCTAGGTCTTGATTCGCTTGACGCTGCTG`, the fluorescence intensity was 502 a.u.
The fluorescence intensity of `CCTAACTACTATAGTCATCTGATATAGCTTCGTACAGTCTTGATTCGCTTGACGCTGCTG` is reported as 1000 a.u.
With `CTATAGTAGTGCTCATCCGTGATCCTTTAATTTTTCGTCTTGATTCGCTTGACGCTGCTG` the fluorescence intensity was 597 a.u.
The fluorescence intensity of `CTATCTGACGTACATCACGTGAACTGTTTTGCGTTCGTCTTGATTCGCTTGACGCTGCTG` is reported as 12800 a.u.
`GAAATGTAAGTTATTAACACCACCTTCTAGTTGTAGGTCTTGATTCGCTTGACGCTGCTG` gave a fluorescence intensity of 504 a.u.
With `CTAGTTTTGACTAGTCTCATGAAATAAACATTATTCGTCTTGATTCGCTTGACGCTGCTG` the fluorescence intensity was 512 a.u.
For `CCTAACTACTATATGCATGTGCTATAGCTTCGTACAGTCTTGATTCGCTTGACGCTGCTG`, the fluorescence intensity was 682 a.u.

Series 3
Target: Probable WRKY transcription factor 33, C-terminal DNA-binding domain (WRKY33, Arabidopsis thaliana, UniProt Q8S8P5, residues 346-449)
Method: DNA-protein interaction ELISA
Form: double-stranded DNA, one strand shown
Sample: in vitro, bacterial lysate
Concentration: not given
Notes: whole dsDNA probe, crude lysate protein
Baseline: highest signal in screen
Reading: higher = stronger binding
Construct (chain): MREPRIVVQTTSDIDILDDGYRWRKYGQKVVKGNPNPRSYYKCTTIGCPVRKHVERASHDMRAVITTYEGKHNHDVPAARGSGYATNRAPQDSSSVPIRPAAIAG
With `AAAAAAGCCTTTACCCTTGTTCCTCTAAAA` the relative absorbance was 42 % of maximum.
The relative absorbance of `AAAAAATAGTGTGATTGGTATCCAGTAAAA` is reported as 56.6 % of maximum.
The relative absorbance of `AAAAAAGCGCGCCCGCACTGTTAATAAAAA` is reported as 33.5 % of maximum.
`AAAAAAATTCGCAACCCTCACGTTCGAAAA` gave a relative absorbance of 36.5 % of maximum.
`AAAAAAGTTGCCGACGATTGCGGGTTAAAA` gave a relative absorbance of 61.8 % of maximum.
For `AAAAAATTCAAAATGATCACTACGGGAAAA`, the relative absorbance was 33.4 % of maximum.
The relative absorbance of `AAAAAACGTGCGCGTGCATGTCATCGAAAA` is reported as 28.2 % of maximum.
`AAAAAAATGATTGCCAATGCTCGCAAAAAA` gave a relative absorbance of 48.8 % of maximum.
With `AAAAAAATGATTTGCAGATCTCCGAGAAAA` the relative absorbance was 48.4 % of maximum.
With `AAAAAAATCTCACTCCTGGTCCCCATAAAA` the relative absorbance was 34.9 % of maximum.
`AAAAAACCACCCAGTCTGTTTCTACTAAAA` gave a relative absorbance of 42.9 % of maximum.
The relative absorbance of `AAAAAATCAGTCTGAGACTTACAACTAAAA` is reported as 71.8 % of maximum.
`AAAAAACCGAGTGTTGCCAGTTGCAGAAAA` has a relative absorbance of 35.1 % of maximum.
The relative absorbance of `AAAAAAACGCTATATATTGGTGCTAGAAAA` is reported as 47.8 % of maximum.

Series 4
Target: Histone acetyltransferase KAT6A, both winged helices, GST fusion (KAT6A, Homo sapiens, UniProt Q92794, residues 1-181)
Method: protein binding microarray
Form: double-stranded DNA, one strand shown
Sample: in vitro
Concentration: not given
Notes: 8-mer, flanks averaged, mean of 2 arrays, mostly near background
Baseline: not given
Reading: higher = stronger binding
Construct (chain): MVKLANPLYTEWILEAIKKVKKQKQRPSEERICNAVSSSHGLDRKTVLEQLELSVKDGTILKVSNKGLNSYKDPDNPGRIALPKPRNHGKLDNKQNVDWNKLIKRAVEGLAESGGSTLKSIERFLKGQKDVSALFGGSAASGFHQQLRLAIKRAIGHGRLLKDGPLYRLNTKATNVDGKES
For `GGGTCTCA`, the E-score was 0.0164.
`ATATCAAG` has an E-score of -0.0476.
The E-score of `CGCTCAAG` is reported as 0.211.
`AGTAGAAC` gave an E-score of -0.106.
With `GAAACATA` the E-score was 0.107.
With `CTGCGCCA` the E-score was 0.104.
`GTACTAGA` has an E-score of -0.0226.
For `AACTATGT`, the E-score was -0.177.
With `AGGCTTGC` the E-score was -0.113.
`CAGGAATG` gave an E-score of -0.171.
With `GTCTCATA` the E-score was -0.0837.
The E-score of `CGTCTCCA` is reported as 0.133.
`ATGGCCGC` gave an E-score of 0.238.
With `CCGTAGCC` the E-score was 0.181.
The E-score of `ATGATATG` is reported as 0.0688.
`AAGGATAA` has an E-score of -0.124.
`CCGGGACC` has an E-score of 0.219.

Excerpt of the above (series 4):
With `CTGCGCCA` the E-score was 0.104.
`GTACTAGA` has an E-score of -0.0226.
For `AACTATGT`, the E-score was -0.177.
With `AGGCTTGC` the E-score was -0.113.
`CAGGAATG` gave an E-score of -0.171.
